Assay results pooled from the literature.
Every numbered part comes from another study and shows a few of its results, in no order. Substitutions count along the parent as printed.

Sample 1 — method: protein-binding microarray; form: double-stranded DNA, one strand shown; sample: in vitro; concentration: not given; reading: higher = stronger binding
Target: Transcriptional repressor CTCF (CTCF, Homo sapiens, UniProt P49711, residues 1-727, full length assumed)
Setting: k-mer, scored over probes, only values ≥0.25
Construct (chain): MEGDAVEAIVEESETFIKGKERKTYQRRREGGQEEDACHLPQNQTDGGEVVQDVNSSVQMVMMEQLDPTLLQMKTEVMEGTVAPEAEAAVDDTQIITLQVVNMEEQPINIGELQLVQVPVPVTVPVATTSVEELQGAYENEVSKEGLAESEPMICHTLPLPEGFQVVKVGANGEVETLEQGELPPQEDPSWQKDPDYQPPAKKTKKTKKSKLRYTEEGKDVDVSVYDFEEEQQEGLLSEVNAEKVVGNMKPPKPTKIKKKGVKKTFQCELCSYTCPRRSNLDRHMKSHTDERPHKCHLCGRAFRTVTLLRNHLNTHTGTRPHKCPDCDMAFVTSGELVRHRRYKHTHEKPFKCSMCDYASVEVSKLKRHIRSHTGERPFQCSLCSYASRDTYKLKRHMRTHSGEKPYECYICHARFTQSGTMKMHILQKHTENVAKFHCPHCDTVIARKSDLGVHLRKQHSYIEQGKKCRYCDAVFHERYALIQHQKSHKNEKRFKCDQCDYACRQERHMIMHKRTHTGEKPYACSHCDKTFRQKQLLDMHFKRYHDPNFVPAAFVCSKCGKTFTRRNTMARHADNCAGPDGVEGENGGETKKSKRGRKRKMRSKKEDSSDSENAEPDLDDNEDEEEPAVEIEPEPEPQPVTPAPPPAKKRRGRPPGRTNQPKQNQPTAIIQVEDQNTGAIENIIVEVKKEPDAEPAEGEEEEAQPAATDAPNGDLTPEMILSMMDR
Sequence | E-score
AGTAAAAA | 0.257
CCCTAGGG | 0.336
AACAATAT | 0.314
GCGCATGA | 0.325
ATGAAAAT | 0.283
AATTATTC | 0.275
ATGTTGTA | 0.298
AAATATAA | 0.321
TATGCGCA | 0.422
TACACCTA | 0.339
AACAGTAT | 0.311
GGCGCGCA | 0.348
CGTGGCGC | 0.372
AAATAAAA | 0.33
ATTTAGTG | 0.254
CCCTATCG | 0.267
CGAATAAC | 0.266
TACCGCTA | 0.257
ATAAAAAC | 0.273

Sample 2 — method: protein binding microarray; form: double-stranded DNA, one strand shown; sample: in vitro; concentration: not given; reference: not given; reading: higher = stronger binding
Target: Histone acetyltransferase KAT6A, winged helix 2, GST fusion (KAT6A, Homo sapiens, UniProt Q92794, residues 85-181)
Setting: 8-mer, flanks averaged, mean of 2 arrays, mostly near background
Construct (chain): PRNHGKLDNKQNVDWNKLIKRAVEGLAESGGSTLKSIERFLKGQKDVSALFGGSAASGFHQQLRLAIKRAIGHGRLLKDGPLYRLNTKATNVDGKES
Sequence | E-score
CGGGAGTC | 0.0073
TCCAACAA | 0.029
GTGAGGGA | 0.201
CCCAGCCC | 0.116
CTGGAATC | -0.172
CATCTTTC | -0.115
CGGAATTA | -0.00968
AGGTTCCA | -0.0976
ATCAGCGC | -0.00233
AACTGTCT | -0.0231
CGAACGAA | -0.0112
ACAAGCGG | -0.0419
ATTTGTAG | -0.00231
CACAGTCC | -0.224
AATCGGCA | 0.184
CCCCATGC | -0.0487

Sample 3 — method: DHFR PCA, deep sequencing; sample: yeast; together with: (+)-ABA 0.39 µM; reference: wild-type fitted maximum; reading: higher = stronger binding
Target: ABI1, truncated, D143A, DHFR fusion (Arabidopsis thaliana)
Setting: methotrexate growth selection, single substitutions
Starting sequence: PYL1, truncated, DHFR fusion (Arabidopsis thaliana); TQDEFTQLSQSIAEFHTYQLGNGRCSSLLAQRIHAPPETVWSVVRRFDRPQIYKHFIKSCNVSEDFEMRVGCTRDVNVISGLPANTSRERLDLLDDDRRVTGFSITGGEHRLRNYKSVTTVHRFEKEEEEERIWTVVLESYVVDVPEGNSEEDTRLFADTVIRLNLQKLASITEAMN; partner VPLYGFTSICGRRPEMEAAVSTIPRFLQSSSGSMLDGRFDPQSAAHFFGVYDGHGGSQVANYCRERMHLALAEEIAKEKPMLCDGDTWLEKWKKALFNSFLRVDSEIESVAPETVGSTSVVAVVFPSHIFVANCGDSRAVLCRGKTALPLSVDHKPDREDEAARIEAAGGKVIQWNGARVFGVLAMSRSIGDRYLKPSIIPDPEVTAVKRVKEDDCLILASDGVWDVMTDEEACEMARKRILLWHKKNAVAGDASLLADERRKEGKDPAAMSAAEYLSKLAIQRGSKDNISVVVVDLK
Variant | relative binding score
H16L | 1.52%
Q7D | 37.3%
D96F | -13.7%
D48A | -0.989%
P37L | 9.53%
V136D | -7.82%
N149K | 9.85%
W134E | 51.4%
Q19G | 17.1%
S117T | -0.161%
E151K | 32%
S117V | -8.69%
R163A | 43.5%
A175S | 39.4%
V43P | -4.81%
K126N | 64.9%
E14M | 8.93%
S9C | 30.8%
V44D | -9.06%
E64W | 6.66%
T173N | 6.2%
I52Q | 35.7%
I57K | 25.1%
K168V | 10.2%
R113N | 18.2%

Sample 4 — method: universal PBM; form: double-stranded DNA, one strand shown; sample: in vitro; concentration: 600 nM; reading: higher = stronger binding
Target: Sal-like protein 4, full length isoform A (SALL4, Homo sapiens, UniProt Q9UJQ4, residues 1-1053)
Chain of UniProt Q9UJQ4 (whole entry, looked up): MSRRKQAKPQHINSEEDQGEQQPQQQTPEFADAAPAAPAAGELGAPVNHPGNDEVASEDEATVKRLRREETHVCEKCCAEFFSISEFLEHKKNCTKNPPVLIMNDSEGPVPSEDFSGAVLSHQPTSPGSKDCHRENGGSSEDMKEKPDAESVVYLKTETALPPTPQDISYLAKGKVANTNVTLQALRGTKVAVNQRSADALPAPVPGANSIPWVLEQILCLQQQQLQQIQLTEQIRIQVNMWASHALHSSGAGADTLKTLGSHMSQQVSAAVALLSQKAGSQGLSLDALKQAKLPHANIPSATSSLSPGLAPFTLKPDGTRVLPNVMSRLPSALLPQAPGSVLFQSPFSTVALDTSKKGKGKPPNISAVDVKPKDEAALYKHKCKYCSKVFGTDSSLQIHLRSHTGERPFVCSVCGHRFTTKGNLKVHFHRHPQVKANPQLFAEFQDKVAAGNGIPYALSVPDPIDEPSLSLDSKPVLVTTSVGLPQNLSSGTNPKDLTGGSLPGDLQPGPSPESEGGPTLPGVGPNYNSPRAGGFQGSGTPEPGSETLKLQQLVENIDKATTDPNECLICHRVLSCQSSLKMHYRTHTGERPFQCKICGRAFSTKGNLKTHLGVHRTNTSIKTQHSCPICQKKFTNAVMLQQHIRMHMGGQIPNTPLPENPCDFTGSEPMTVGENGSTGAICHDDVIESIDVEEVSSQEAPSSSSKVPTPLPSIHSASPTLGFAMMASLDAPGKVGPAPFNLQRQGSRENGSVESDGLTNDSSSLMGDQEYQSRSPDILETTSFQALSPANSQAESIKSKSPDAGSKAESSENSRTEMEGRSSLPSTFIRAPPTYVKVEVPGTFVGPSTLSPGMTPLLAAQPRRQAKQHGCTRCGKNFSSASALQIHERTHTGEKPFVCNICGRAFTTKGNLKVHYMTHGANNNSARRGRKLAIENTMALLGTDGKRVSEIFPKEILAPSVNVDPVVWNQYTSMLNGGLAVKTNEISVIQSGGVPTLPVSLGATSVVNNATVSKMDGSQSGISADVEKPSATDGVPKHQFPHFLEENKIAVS
Setting: 8-mer, flanks averaged, mean of replicates
Sequence | E-score
AGTTGCCG | -0.285
AATATGAC | 0.355
ACCAATGA | 0.14
ATCCTTGG | 0.0037
ATCTCGTA | 0.237
GAACGACA | 0.00796
CGAGTAAA | 0.112
CGATTCCG | -0.192
CTCGCACA | -0.108
CCCAAGAC | -0.195
CCCATGCG | -0.26
CTCTGTGA | 0.0388
AATGGGCC | -0.251
CCCTCATC | -0.0973
ACTCTCAT | 0.0909
CGTAATGA | 0.0933
CTTGACGC | -0.174
GCATAAGC | 0.0973
AAGTTCGA | 0.0483
AGGCGACT | -0.2
CGCATGCA | -0.0473
GTAATGAA | 0.211
AGCCGGCT | -0.328

Sample 5 — method: RNA Bind-n-Seq; form: RNA; sample: in vitro; concentration: 365 nM; reference: no-protein control; reading: higher = stronger binding
Target: RNA binding protein fox-1 homolog 2, RRM domain, GST-SBP tag (RBFOX2, Homo sapiens, UniProt O43251-10, residues 100-194)
Setting: natural RNA segment, single round, ends assumed
All sequences stand within: GGGAGUUCUACAGUCCGACGAUC … UGGAAUUCUCGGGUGCCAA
Residues (chain): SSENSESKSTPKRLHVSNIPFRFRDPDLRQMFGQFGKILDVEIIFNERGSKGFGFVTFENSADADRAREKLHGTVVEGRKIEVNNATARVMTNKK
Sequence | RBNS enrichment (R)
GGACCCUGCUUUUUCCAGGGGCCGAGGGGCUGCCUUUCCUUUGUGUGUAUUAAGCUUUUCAAACAAUGGAGGGGAUGGAGAGCCCUGGUGUCCUGACGGGAGCCAGGUCG | 0.306
UCCCCUCUGACAGACCGAUAGCUGCAUCAGGCUGUUGGGUGGAAUGGGAGGCAAGGGAAUAGGAAAGCCAAAGGCCAAGCAGGAACUCUGUGCCUGCUCUCUGCUCCUGU | 0.407
GCUUUGUAAAUGUCUUAUUUGUGUAAUAAAUAAAGUUAAUGCGAGUAGAAGUGCCGGCACUUAAACCAGAAUGCCAUGGAAUUCCAUUUUUCUCUUGCUAAACCCUUGUC | 1.2
CUGGGAGGGAAUGAGGUUCCACUCAUUGUCUCGUGACUUCCAUCCCUGCUGAACGGGGCUGCAAGGCCAAGGCUCCUUAAGGGAGGUCCUUACCUCCAAUCCAGUUAGAG | 0.32
CCAAAUUGCUGGUGGAUAUGGGGCUGAAGGCAGAAGCAGCUGGGAAGGGCAGUAGAGGCGCAAGCUGGGUCCUGCUGGCCGGGGUAGCUCAGCUGUGACUUUGGACUCUG | 0.692
CUACCUUGAAAUCCAGAAAAUCCAAUCCUUAAUCAACUGCUUGAUGAAGGAGGCAAAACAAAGGCAGCAGGAGAUAAUGUGAUUGGUACACAAAAGCUAAAGCAGUGGCU | 0.376
CAAGUAAUUUCCUGAGCUAAAUGCUUCAUUGAAAGCUUCAAAGUUUAUAUGCCUGGUGCACAGUGCUUAGAAGUAAGCAAUUCCCAGGUCAUAGCUCAAGAAUUGUUAGC | 0.264
ACCCGGUGCGGCCUCAGCAGCUUCUGUGGGAACAGAGCCAGUCUGCACGGAGGAGGCUAAGACUCCAUCUCGGCCUUUGAACUCAGAGAUCCCCCUGCCUCAGCCUCCAG | 0.356
CCCACAAAGACCUCCUGGGUGGGAAAGACUCAAAGGGGUGCUUGGGCCACUCAGGACCCCUCUGGCUGUGUCGGACUGGGGAGGGAUAUGAUGGAGAGCCAGCCAGUGGG | 0.628
GACCUCUCGAAAGUCUCUGUGGGGGCAUGAGGGAGAAAAGGCCAUUGGGAGAAUUACUGCCUUUACUUUGGGACUACUUUUAUGCUGAUAACUUGGGAUUUCUUGAUAGU | 0.614
UUAGUGCUCGGUUCCCUGAGAAGCCUGAGAAAAGCUUCCCCAACCAAAUGUUCUUAAAGACUUUUUGCUAUGUAGUAUCUACCUUGUAGAAACCUUGCAGAUUGCAGAGU | 0.348
UGUGCUUCCCAGGGACAGAGCGUGUGCUGUGGCGGCUAGGCUCCUUGGAGGUCACAAGCAGCUGGCCAGGGUAAUGUCCCUUGGUCCAUGGGGCUGUGGCCCGUGCUGUA | 0.513

For quick reference, copied from above (sample 1):
Sequence | E-score
GGCGCGCA | 0.348
TATGCGCA | 0.422
CGAATAAC | 0.266
GCGCATGA | 0.325
CCCTATCG | 0.267
TACACCTA | 0.339
AATTATTC | 0.275
